Results of several laboratories.
Each numbered part is a random draw from the data of one study; scales do not carry over between parts. Substitutions count along the parent as printed.
Sequence of UniProt P21917 (whole entry, looked up): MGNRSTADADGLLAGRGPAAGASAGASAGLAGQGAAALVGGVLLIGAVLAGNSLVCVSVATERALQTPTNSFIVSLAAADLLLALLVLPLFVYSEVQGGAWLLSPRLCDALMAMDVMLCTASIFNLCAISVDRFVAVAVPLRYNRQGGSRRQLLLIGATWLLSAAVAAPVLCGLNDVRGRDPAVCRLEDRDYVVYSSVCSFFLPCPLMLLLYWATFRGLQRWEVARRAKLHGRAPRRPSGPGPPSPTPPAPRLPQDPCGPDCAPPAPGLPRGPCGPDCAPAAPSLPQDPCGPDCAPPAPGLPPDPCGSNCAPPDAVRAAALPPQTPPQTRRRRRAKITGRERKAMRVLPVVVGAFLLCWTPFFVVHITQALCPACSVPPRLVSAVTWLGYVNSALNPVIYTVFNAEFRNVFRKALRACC

Study 1
Target: tungstate, free oxyanion
Method: microfluidic competitive inhibition
Sample: in vitro, cell-free expressed
Concentration: not given
Setting: derived from inhibition constants, unchanged parent 2230 nM
Direction: lower = stronger binding
Starting sequence: PafA, mature enzyme, eGFP fusion (Elizabethkingia meningoseptica, UniProt Q9KJX5); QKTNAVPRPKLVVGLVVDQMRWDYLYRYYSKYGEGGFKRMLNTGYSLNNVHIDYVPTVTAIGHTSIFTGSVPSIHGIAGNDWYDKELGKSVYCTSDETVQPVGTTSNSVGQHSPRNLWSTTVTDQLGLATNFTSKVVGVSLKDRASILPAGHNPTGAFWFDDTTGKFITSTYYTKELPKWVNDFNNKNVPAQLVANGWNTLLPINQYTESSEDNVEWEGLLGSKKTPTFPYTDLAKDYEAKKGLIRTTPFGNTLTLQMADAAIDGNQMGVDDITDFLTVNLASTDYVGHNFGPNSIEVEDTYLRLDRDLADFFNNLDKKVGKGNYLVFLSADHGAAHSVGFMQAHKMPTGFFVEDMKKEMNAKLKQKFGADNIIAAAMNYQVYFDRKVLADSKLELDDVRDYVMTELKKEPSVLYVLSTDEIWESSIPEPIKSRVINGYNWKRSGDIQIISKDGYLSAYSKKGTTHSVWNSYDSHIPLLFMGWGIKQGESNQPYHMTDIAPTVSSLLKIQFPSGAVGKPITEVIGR
For `Q381V`, “oxyanion analog dissociation constant” read 2.09 µM.
For `Q206G`, “oxyanion analog dissociation constant” read 1.75 µM.
`K241V`: “oxyanion analog dissociation constant” 2.29 µM.
`G110V`: “oxyanion analog dissociation constant” 2.4 µM.
For `H337G`, “oxyanion analog dissociation constant” read 1.63 µM.
For `A262G`, “oxyanion analog dissociation constant” read 1.83 µM.
`V122A` — result for “oxyanion analog dissociation constant”: 2.27 µM.
`S223G`: “oxyanion analog dissociation constant” 1.96 µM.

Study 2
Target: UDP-N-acetylglucosamine--peptide N-acetylglucosaminyltransferase 110 kDa subunit (OGT, Homo sapiens, UniProt O15294)
Sequence of UniProt O15294 (whole entry, looked up): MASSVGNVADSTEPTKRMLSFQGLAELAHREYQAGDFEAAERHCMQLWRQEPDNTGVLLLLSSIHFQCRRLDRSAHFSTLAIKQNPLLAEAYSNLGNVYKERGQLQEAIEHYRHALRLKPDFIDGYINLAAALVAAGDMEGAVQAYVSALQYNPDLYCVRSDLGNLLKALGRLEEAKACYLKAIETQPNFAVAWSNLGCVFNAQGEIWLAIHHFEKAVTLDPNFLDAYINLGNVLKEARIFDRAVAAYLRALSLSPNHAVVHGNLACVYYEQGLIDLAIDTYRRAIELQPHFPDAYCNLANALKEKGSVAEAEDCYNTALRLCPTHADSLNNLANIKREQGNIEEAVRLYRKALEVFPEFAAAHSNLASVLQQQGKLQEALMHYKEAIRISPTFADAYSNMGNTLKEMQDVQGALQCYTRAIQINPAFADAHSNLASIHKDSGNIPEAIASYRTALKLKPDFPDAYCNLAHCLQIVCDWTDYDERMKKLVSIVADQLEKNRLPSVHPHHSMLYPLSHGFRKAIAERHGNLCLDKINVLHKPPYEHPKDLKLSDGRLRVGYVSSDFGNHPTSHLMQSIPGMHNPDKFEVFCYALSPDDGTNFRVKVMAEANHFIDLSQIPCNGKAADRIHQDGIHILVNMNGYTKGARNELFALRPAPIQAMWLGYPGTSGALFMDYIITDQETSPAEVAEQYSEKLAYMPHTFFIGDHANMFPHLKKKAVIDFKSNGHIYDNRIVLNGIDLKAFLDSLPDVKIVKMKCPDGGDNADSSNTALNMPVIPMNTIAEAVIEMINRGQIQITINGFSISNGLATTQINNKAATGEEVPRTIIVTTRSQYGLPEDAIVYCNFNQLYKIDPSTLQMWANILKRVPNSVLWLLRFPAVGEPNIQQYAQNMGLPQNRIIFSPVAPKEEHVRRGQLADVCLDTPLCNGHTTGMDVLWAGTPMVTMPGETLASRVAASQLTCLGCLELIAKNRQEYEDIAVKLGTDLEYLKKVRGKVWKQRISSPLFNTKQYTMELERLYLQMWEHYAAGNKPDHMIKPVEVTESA
Observed: binding
Method: phage display NGS
Molecule type: peptide
Concentration: concentration not given
Setting: normalized abundance
Baseline: input library
`KQVAVSVPPKYQIYV` — result for “enrichment fold change”: 5.71.
`VHRNSHHSEHHRDFE` — result for “enrichment fold change”: 6.14.
`QHPLHHDMHHMRVMD` — result for “enrichment fold change”: 5.46.
`NYYGQHHHVLQHGDE`: “enrichment fold change” 6.11.
Under “enrichment fold change”, `TWQWNAHHHHGMSGV` is recorded as 12.8.
`HYGQMIHHFPQGFHD` — result for “enrichment fold change”: 7.64.
Under “enrichment fold change”, `QELFSHRMRFEQHHH` is recorded as 69.
For `ETNQYLPTYQIMYQF`, “enrichment fold change” read 66.3.

Study 3
Target: CCNB3, cyclin fold, Cln2 fusion (human)
Method: yeast growth competition, sequencing
Sample: yeast
Setting: strong parent motif
Baseline: not given
Direction: higher = stronger binding
Starting sequence: viral docking peptide; KGVKRKLFAEDSS; partner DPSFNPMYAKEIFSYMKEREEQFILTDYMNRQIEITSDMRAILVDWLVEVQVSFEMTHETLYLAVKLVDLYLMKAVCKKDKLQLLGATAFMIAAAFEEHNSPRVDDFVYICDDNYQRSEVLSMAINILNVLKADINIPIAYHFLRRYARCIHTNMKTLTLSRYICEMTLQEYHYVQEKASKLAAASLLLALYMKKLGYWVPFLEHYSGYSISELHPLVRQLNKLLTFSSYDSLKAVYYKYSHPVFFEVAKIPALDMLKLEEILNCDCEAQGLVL
`KGVKGKLFAEDSS [R5G]` — result for “normalised enrichment score”: -0.552.
`KGVKRKLMAEDSS [F8M]` — result for “normalised enrichment score”: 0.187.
For `KGVKRKLFAEDFS [S12F]`, “normalised enrichment score” read 2.83.
`KGVKRKAFAEDSS [L7A]`: “normalised enrichment score” -0.241.
`KGDKRKLFAEDSS [V3D]`: “normalised enrichment score” -0.0786.
Under “normalised enrichment score”, `KGVKRKPFAEDSS [L7P]` is recorded as 0.0878.
For `KGVKRKIFAEDSS [L7I]`, “normalised enrichment score” read 0.423.
`KGVKKKLLAEDSS [R5K F8L]` — result for “normalised enrichment score”: 0.241.

Single results of other studies
For `CNC(=O)c1cc(C(=O)NC2CC2)cn(Cc2ccccc2)c1=O`, the inhibition was 6.96% (D(4) dopamine receptor (DRD4, Homo sapiens, UniProt P21917); binding, radioligand binding; 10 µM).

Repeated from above (study 1):
For `Q206G`, “oxyanion analog dissociation constant” read 1.75 µM.
`V122A` — result for “oxyanion analog dissociation constant”: 2.27 µM.
`G110V`: “oxyanion analog dissociation constant” 2.4 µM.
For `A262G`, “oxyanion analog dissociation constant” read 1.83 µM.
